Published values collected from several papers.
Every numbered part comes from another study and shows a few of its results, in no order.

Series 1 — technique: protein binding microarray; molecule type: double-stranded DNA, one strand shown; sample: in vitro; concentration: not given; relative to: not given; direction: higher = stronger binding
Target: Histone acetyltransferase KAT6A, winged helix 2, GST fusion (KAT6A, Homo sapiens, UniProt Q92794, residues 85-181)
Setting: 8-mer, flanks averaged, mean of 2 arrays, mostly near background
Construct (chain): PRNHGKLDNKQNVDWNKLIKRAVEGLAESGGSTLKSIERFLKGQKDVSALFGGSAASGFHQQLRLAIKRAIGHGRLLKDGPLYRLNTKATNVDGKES
`CGCAATGC` has an E-score of 0.00973.
The E-score of `GTTCTCCA` is reported as 0.00494.
The E-score of `CACTGCAC` is reported as 0.0556.
`CACGCTAG` has an E-score of -0.0917.
`ACGCTGCG` has an E-score of 0.101.

Series 2 — technique: Spec-seq; molecule type: double-stranded DNA, one strand shown; sample: in vitro; concentration: not given; setting: whole probe, mean of replicates; relative to: not given; direction: lower = stronger binding
Target: POU domain, class 5, transcription factor 1, POU domain (Pou5f1, Mus musculus, UniProt P20263, residues 131-289)
Sequence of UniProt P20263 (131-289, looked up): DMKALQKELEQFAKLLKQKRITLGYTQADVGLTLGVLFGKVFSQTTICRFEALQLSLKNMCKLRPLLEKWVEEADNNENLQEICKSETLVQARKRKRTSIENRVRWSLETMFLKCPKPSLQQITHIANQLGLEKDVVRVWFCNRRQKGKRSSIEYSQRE
Shared flanks, not repeated: GAGTCGTCTCGTCAGCACAT … CCGTAGAGCACTCAGGTC
Under “relative binding energy”, `CAAAAT` is recorded as -0.163 ln ratio.
`GCTGCC`: “relative binding energy” 1.02 ln ratio.
`CGCCAT`: “relative binding energy” 0.544 ln ratio.
`GTGCAT` — result for “relative binding energy”: -0.134 ln ratio.
`CGGGAT` — result for “relative binding energy”: 0.634 ln ratio.

Series 3 — technique: aptamer microarray, sandwich; molecule type: DNA with 2'F-ANA; sample: in vitro; concentration: 200 nM; with: Cy3 exosite-II aptamer, 400 nM; direction: higher = stronger binding; sequence: GGTTGGTGTGGTTGG
Target: Prothrombin, mature alpha-thrombin (F2, Homo sapiens, UniProt P00734)
Setting: whole 15-mer aptamer, many near background
`2'F-ANA at 1 2 3 6 8 11 12 14` — result for “mean fluorescence intensity”: 82.7 a.u.
Under “mean fluorescence intensity”, `2'F-ANA at 2 3 4 6 7 10 13 14` is recorded as 171 a.u.
Under “mean fluorescence intensity”, `2'F-ANA at 2 3 5 7 8 12 13 15` is recorded as 167 a.u.
For `2'F-ANA at 1 5 6 7 8 10 11 14`, “mean fluorescence intensity” read 48.5 a.u.
Under “mean fluorescence intensity”, `2'F-ANA at 3 5 9 11 14` is recorded as 90.5 a.u.

Single results of other studies
`PhoQ, residues 284 288 289 292 302 303 ALSMDL` gave a fold induction of 5.55 (PhoP, residues 12 14 15 18 19 LHTVM (Escherichia coli, UniProt P23836); Sort-seq, refers to: YFP reporter; E. coli; PhoQ-PhoP variant library, with: 10 µM Mg2+; relative to: high Mg2+ state, higher = stronger signaling).

Repeated from above (series 2):
`CGCCAT`: “relative binding energy” 0.544 ln ratio.
`GTGCAT` — result for “relative binding energy”: -0.134 ln ratio.
